Results pooled from the literature.
Lines come from different studies, so protocols differ.

Compound = CN(C)N=Nc1[nH]cnc1C(N)=O; system = human patients, plasma; conditions = intravenous, 1000 mg/m^2 over 1 h, cycle 2 day 1, co-administered with another drug; quantity = volume of distribution (Vz); result = 25.5 L/m²
Compound = NC(=O)N1c2ccccc2CC(O)c2ccccc21 (centres unmarked); test = population PK modelling; system = human patients, plasma; conditions = dose not given, weight-scaled volume and clearance; quantity = volume of distribution; result = 36.2 L
Compound = CC(=O)O[C@H]1C(=O)[C@@]2(C)[C@H]([C@H](OC(=O)c3ccccc3)[C@]3(O)C[C@H](OC(=O)[C@H](O)[C@@H](NC(=O)c4ccccc4)c4ccccc4)C(C)=C1C3(C)C)[C@]1(OC(C)=O)CO[C@@H]1C[C@@H]2O; system = human, plasma; conditions = intravenous infusion, 80 mg/m^2, day 5, with oral co-drug daily; quantity = volume of distribution; result = 196 L
Compound = COc1c(OCCCN2CCOCC2)ccc2c1N=C(NC(=O)c1cnc(N)nc1)N1CCN=C21; system = human; conditions = dose not given, compartment 3; quantity = volume of distribution; result = 522 L
Compound = CN(C)CCCNC(=O)/C(=C/CCCCC(=O)NO)COc1cccc2ccccc12; system = human patients; conditions = intravenous, 312.5 mg/m2, day 1, single dose, mean; quantity = volume of distribution at steady state; result = 44.6 L
Compound = COc1ccc(F)cc1C(=O)NCc1ccc(-c2nn([C@@H](C)C(F)(F)F)c(N)c2C(N)=O)cc1; test = Simcyp parameter estimation; system = human, plasma; conditions = intravenous, 22 µg; quantity = volume of single adjusted compartment (VSAC); result = 0.17 L/kg
Compound = Cc1ccc([C@@H]2O[C@H](CO)[C@@H](O)[C@H](O)[C@H]2O)cc1Cc1ccc(-c2ccc(F)cc2)s1; system = human, maintenance hemodialysis patients; conditions = oral, 300 mg once daily, steady state, median; quantity = volume of distribution; result = 194 L
Compound = Nc1ccn([C@@H]2O[C@H](CO)[C@@H](O)C2(F)F)c(=O)n1; test = HPLC-UV; system = human, plasma; conditions = 800 mg/m^2, median, before paricalcitol; quantity = volume of distribution; result = 231 L/m²

A few entries again:
Compound = CN(C)CCCNC(=O)/C(=C/CCCCC(=O)NO)COc1cccc2ccccc12; system = human patients; conditions = intravenous, 312.5 mg/m2, day 1, single dose, mean; quantity = volume of distribution at steady state; result = 44.6 L
